Measured values gathered from unrelated publications.
Numbered parts are unrelated; each lists some results of a single study. Changes are numbered by the printed parent chain.

Block 1 — method: DHFR PCA, deep sequencing; medium: yeast; added: (+)-ABA 710 µM; baseline: wild-type fitted maximum; reading: higher = stronger binding; quantity: relative binding score
Target: ABI1, truncated, D143A, DHFR fusion (Arabidopsis thaliana)
Setting: methotrexate growth selection, single substitutions
Parent: PYL1, truncated, DHFR fusion (Arabidopsis thaliana); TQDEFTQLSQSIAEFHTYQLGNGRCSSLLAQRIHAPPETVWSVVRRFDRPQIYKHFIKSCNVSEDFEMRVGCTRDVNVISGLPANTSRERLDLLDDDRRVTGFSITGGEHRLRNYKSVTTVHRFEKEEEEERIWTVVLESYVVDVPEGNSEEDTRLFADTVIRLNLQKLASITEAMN; partner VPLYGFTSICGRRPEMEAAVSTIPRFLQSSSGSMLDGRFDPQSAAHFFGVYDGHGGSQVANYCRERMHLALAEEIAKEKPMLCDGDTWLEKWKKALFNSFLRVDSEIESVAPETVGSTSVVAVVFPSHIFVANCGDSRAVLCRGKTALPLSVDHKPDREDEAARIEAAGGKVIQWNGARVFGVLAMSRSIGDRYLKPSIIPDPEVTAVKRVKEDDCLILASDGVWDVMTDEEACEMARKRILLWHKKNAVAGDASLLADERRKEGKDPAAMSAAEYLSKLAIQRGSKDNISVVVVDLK
Change = V76W; value = -9.14%
Change = S11T; value = 102%
Change = V62W; value = 83.5%
Change = N22P; value = 101%
Change = R74E; value = -12.2%
Change = N177L; value = 88.9%
Change = S42F; value = 83.4%
Change = S42V; value = 92.8%
Change = I172S; value = 82.4%
Change = V76C; value = 104%
Change = K126A; value = 113%
Change = R69I; value = 99.8%
Change = E89Q; value = 40.7%
Change = A84C; value = 88.6%
Change = R90S; value = 91%
Change = R90P; value = 2.36%
Change = V76G; value = -6.46%

Block 2 — target: CCND1, cyclin fold, Cln2 fusion (human); method: yeast growth competition, sequencing; medium: yeast; setting: weak parent motif; baseline: not given; reading: higher = stronger binding; quantity: normalised enrichment score
Parent: SLBP docking peptide (human); ARYKRKLLINDFG; partner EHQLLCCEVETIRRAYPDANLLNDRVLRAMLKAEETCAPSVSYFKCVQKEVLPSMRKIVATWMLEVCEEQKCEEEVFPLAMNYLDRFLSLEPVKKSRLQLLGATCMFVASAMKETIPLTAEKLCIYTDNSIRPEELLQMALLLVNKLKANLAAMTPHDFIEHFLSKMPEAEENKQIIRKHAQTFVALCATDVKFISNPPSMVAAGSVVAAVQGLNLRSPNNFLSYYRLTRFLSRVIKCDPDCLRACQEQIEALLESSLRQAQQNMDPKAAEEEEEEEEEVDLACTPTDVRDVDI
Change = R5S; value = 0.712
Change = L8F; value = 0.16
Change = A1Q; value = -0.936
Change = D11Q; value = -0.000974
Change = D11V; value = 0.515
Change = R5Y; value = -0.0901
Change = F12A; value = -0.133
Change = I9L; value = 0.0691
Change = I9Y; value = 0.148
Change = Y3E; value = 0.32
Change = N10I; value = 0.316
Change = L7N; value = 0.229
Change = G13T; value = -0.174

Block 3 — method: RNA Bind-n-Seq; form: RNA; medium: in vitro; tested at: 200 nM; setting: whole 134-nt RNA, ends assumed; added: 150 mM LiCl; baseline: input library; reading: higher = stronger binding; quantity: log2 enrichment; all molecules: 7-deaza-guanosine replaces G
Target: Fragile X messenger ribonucleoprotein 1, C-terminal low-complexity region (Fmr1, Mus musculus, UniProt P35922)
Constant ends, left off below: GGGAGUUCUACAGUCCGACGAUC … UGGAAUUCUCGGGUGUCAAGG
Sequence = UCCUCAAGUCCUGUGCUACACAUCGUAUGUACCGAAUCGGUGGUGGAAAGGAAAGUAUUAUGUUACGCCGUUCGGAUCUGCACUUCCAGC; value = 0.694
Sequence = CAAGUCCUGUGCUACACAUCGUAUGUACCGAAUCGGGUGGGUUUGGGAAAAAGGGAAAGUAUUAUGUUACGCCGUUCGGAUCUGCACUUC; value = -0.845
Sequence = UGGGAGGUGGAUUUUUUUUAUUUUUUUAGCUCAUUUCCAGGGGUGGGAAUUUUUUUUUAAUAUGUGUCAUGAAUAAAGUUGUUUUUGAAA; value = 0.65
Sequence = AGUCCUGUGCUACACAUCGUAUGUACCGAAUCGGUUUUUGGAAAAAGGAAAAAAAGGAAAGUAUUAUGUUACGCCGUUCGGAUCUGCACU; value = -2.59
Sequence = CACAGACAACACGCACCCACACAGACACAGAGGGAAUGGGUUGGGAUGGGGACAGGGUGCACAGCAGGGCGGGGUAGGACCCCAGCCCCU; value = -1.36
Sequence = CAAGUCCUGUGCUACACAUCGUAUGUACCGAAUCGGAAAGGAAAAAAAGGAAAGGAAAGUAUUAUGUUACGCCGUUCGGAUCUGCACUUC; value = -0.687

Block 4 — method: protein-binding microarray; form: double-stranded DNA, one strand shown; medium: in vitro; tested at: 2540 nM top; setting: 60-bp whole probe; added: salmon DNA 0.4 mg/ml; baseline: random background probes; reading: higher = stronger binding; quantity: fitted relative affinity; constant ends, left off below: GCCTAGCAC … GTCTTGATTCGCTTGACGCTGCTG
Target: Interferon regulatory factor 3, full length, phosphomimetic (IRF3, Homo sapiens, UniProt Q14653, residues 1-427, S386D/S396D/S398D/S402D/T404D/S405D)
UniProt Q14653, sequence (whole entry, unmodified, looked up): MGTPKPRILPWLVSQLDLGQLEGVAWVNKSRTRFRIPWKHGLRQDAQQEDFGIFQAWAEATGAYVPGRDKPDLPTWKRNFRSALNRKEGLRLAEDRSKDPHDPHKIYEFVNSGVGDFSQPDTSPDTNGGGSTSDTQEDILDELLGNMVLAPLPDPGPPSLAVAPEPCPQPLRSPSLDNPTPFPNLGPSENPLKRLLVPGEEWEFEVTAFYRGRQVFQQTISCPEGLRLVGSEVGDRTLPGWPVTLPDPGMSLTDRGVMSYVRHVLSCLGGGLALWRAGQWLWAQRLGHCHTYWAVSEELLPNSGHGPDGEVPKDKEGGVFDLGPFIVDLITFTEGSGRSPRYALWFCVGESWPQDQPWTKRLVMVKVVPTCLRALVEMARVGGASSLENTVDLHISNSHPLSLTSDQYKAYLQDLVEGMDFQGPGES
Sequence = GATGGTATCGGTCTCGGGACGTGCTAG; value = 4.57 z-score
Sequence = TTAGGTATCCTCCTGCTTTAGTGCTAG; value = 1.28 z-score
Sequence = TTAGGTCTCGGTCTGGGTTAGTGCTAG; value = 0.0137 z-score
Sequence = GACGGGTTCGGACTGGGGACGTGCTAG; value = -0.217 z-score
Sequence = TTAGGTTTCGCACTGGGTTAGTGCTAG; value = 3.18 z-score
Sequence = GACGATATCAGAATCGAGACGTGCTAG; value = 1.3 z-score
Sequence = GACGATTTCCGGTTTCGAGACGTGCTA; value = 4.12 z-score
Sequence = TTAGGTATACTACTGCTTTAGTGCTAG; value = -0.0981 z-score
Sequence = ATGGGTATGGCCTATTTATATGTGCTA; value = -0.543 z-score
Sequence = TCAGATATAAATGTAACACTGTGCTAG; value = 0.255 z-score
Sequence = TCACATTTAGAAAATGGAACTGTGCTA; value = 1.06 z-score

Block 5 — method: RNA Bind-n-Seq; form: RNA; medium: in vitro; tested at: 100 nM; baseline: input RNA pool; reading: higher = stronger binding; quantity: bound/input enrichment
Target: RING finger protein unkempt homolog, zinc fingers 1-6, SBP tag (UNK, Homo sapiens, UniProt Q9C0B0, residues 30-357)
UniProt Q9C0B0, sequence (30-357, looked up): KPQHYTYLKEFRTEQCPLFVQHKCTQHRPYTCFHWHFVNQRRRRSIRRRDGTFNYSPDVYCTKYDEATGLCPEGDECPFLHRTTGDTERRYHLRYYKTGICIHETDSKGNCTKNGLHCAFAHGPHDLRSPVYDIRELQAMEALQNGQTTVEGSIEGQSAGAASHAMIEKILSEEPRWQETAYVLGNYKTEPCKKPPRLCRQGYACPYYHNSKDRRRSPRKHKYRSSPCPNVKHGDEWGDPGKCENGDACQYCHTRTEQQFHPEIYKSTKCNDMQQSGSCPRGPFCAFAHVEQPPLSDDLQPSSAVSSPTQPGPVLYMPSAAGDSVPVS
Setting: RNA with constant flanks, vertebrate orthologous sites, ends assumed
Constant ends, left off below: GGGAGUUCUACAGUCCGACGAUC … CAACAGAGGAUUGAGCAUCA
Sequence = AGAGAUGACCCCCAGUCCCACCUCUGUUUAUUCUGUAAACUACAACCUGUAAAUAAUGGUUAGCAUUCCUAUUGUAACAAAAUUAAUUUUUAUUAAAUAAAUUAUAUUUCCUAGUCUAAU; value = 0.899 ratio
Sequence = UGAGGGAGAGAUUUCUGUGCUUUCUGAUAUUUAAUUUGCUCUUUUUAAGGUAUUCCAACCUAGAGUUUUUGAUGAAACUGAUAUAUUGACAGUUCUCACCUAAGUCCUUUUAUAAAGAAU; value = 0.807 ratio
Sequence = AUAUAAGAACUCUUACAGUCUUAGAUGUUAAAAAAUAUAUAUCUGAAUUGUAAGAGUUAGCACAGGUGUUUUUGUUUUUUUUUUUUAAGCACUUGUUUUGAGUACAAGUCAUUUCUGAAA; value = 0.404 ratio
Sequence = UCAGUCUUCCACAUAGGGUUGGCCUCAAAUCUAUAGGAUUUACGACAAAUAUAUUAUAUCUAGUUAAGUUGAGUUUAAUAUUUUUUUAUUAGCCUGUAAAUAAAGAUGGCAUCUUCUACA; value = 1.39 ratio
Sequence = CUGGCCAAACGUUUUUUUACUUGUAUUACUUUGUCCUUAUUUUUUUUCCUGGUAGUUAGUUUCCGUUGUUACCCACACCAUUUUUAUGUCACCUUCACUGAAGAAGGGCUAGAGUUUAAC; value = 2.28 ratio
Sequence = GUGCAAGGAGAUUAUUCCAACUAGUGAAUUUAUUAACAGUAAGUUGACAGCAAAAGCCAACAGGCAGCUUCAAGAUCCUCUAGUGAUCAUGACCGGAAACAUCCCAACAUGGCUGACUGA; value = 0.346 ratio
Sequence = CUUGCACCUCCUGGACCUUGGCUCUCCAGCUGUGGCUGUAGAGGCUGAGCUUCUUUUCUUUGAGUUUUCCCUGCUUCCUGCCUUCUGCUCCCCAUCCCAAGGUCUGACUCAUGGAGUUAC; value = 0.284 ratio
Sequence = GGGUGGCGGGUGGGGGAAUCCCAUGCCCUGGCCUUGCCUCCCCUCCCUGCCACUCGCUCCUAGUUAUUAUUUUUUUUUUUAACCACCAUGUGAUUAAGGUCGGCGCUGCCUCACCCGACC; value = 5.63 ratio
Sequence = CUGUUGUUAAGCACUGUGUUCCAGACUGUGUCUGACUUUAGUGUAACCUAGGAGAUUUUAUAGUUUUAUUUUAAUGAAAUCCUGCUUGAUGCAGAGCAGCGGGGAGAGCAGCGUCCAUGU; value = 3.2 ratio
Sequence = AAUAUUAUUAACAUCGUCUUCCUGUAUGGUUUUUUUUUUUUGUUUUUGUACCCUAGUAUCUACUUUACUUUUUAAAAUCUCAGACUUCACUGAUCUCUGAAUUGAUCCAGUUUUACAUUG; value = 0.576 ratio
Sequence = GUUGGGUCAUGACCCCUAUAGGUUAGGCCAUGAUGCUUACAGGUUAGGACAGGACCCCUACAGAUUAGGCCAUGAUCCCUACAGACUAACUCCUGAUCCCUAUAGGAUGUCACCCAGACC; value = 0.614 ratio

Block 6 — method: protein-binding microarray; form: double-stranded DNA, one strand shown; medium: in vitro; tested at: 0.8 µM; setting: whole 60-bp probe, no competitor; reading: higher = stronger binding; quantity: fluorescence intensity; constant ends, left off below: … GTCTTGATTCGCTTGACGCTGCTG
Target: Centromere-binding protein 1, full length, N-terminal tag (CBF1, Saccharomyces cerevisiae, UniProt P17106, residues 1-351)
UniProt P17106, sequence (whole entry, looked up): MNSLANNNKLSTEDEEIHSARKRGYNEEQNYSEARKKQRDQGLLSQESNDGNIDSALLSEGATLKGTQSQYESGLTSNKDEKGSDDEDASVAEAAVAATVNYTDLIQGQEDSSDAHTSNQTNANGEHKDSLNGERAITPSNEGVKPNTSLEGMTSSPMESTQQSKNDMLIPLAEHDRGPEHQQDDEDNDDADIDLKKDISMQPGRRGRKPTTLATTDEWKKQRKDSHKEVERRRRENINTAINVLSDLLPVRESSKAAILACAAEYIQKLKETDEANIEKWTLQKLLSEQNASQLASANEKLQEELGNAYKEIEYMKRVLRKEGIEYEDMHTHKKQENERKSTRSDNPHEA
Sequence = CTAAAATAATTCAATCTCAACTGATAAAAACAATTC; value = 549 a.u.
Sequence = GAAGTAAGCGTGGACGGTGTGATTTTATTAGTTTAG; value = 537 a.u.
Sequence = CTAAGATGATATTTCAACATCATGTTTTGCTTATTC; value = 538 a.u.
Sequence = GAAGAAAACCCTGATAACGTGGTGTCATTTTTATAG; value = 810 a.u.
Sequence = GAATCCTGCACACTGCACGTTGAGACCTGAATCTAG; value = 646 a.u.
Sequence = GAAAATATGGCGATATACGTGACAGATCCCACATAG; value = 580 a.u.
Sequence = GAACTGTACAGTCGTCACATCAGACGAATACAATAG; value = 555 a.u.
Sequence = CTATTTAATTAATCGTGACTGGTCGGAGAAGGCTTC; value = 1090 a.u.
Sequence = GAATATTTTGTATATCTGATGCTATAGCCTCTATAG; value = 481 a.u.
Sequence = CTAAGCTAGATTCATCATCACTACTTGAAGGGGTTC; value = 516 a.u.
Sequence = CTACGCTATTCGGATGACGTGATGACGCTTCGGTTC; value = 653 a.u.
Sequence = GAATACTGGTTTTAGCACGAGTTACCGACTATTTAG; value = 615 a.u.
Sequence = CTAAAGCCATACCACCACCAATGATGATAGAGTTTC; value = 508 a.u.

Further values, each from its own experiment
Substance = PhoQ, residues 284 288 289 292 302 303 AGGCYF; target = PhoP, residues 12 14 15 18 19 TTLRV (Escherichia coli, UniProt P23836); assay = Sort-seq, item: YFP reporter; system = E. coli; conditions = PhoQ-PhoP variant library, added: 10 µM Mg2+; scale = baseline: high Mg2+ state, higher = stronger signaling; quantity = fold induction; value = 6.96

Repeated from above (block 1):
Change = I172S; value = 82.4%
Change = V76C; value = 104%
Change = K126A; value = 113%
Change = R69I; value = 99.8%
Change = E89Q; value = 40.7%
Change = A84C; value = 88.6%
Change = R90S; value = 91%
